Published values gathered from unrelated publications.
Each line is one published result; not all experiments were run side by side. Numbers after ± are the reported error.

CC(=O)N[C@@H](CC(C)C)C(=O)N[C@H]1CSSC[C@@H](C(=O)N2CCC[C@H]2C(N)=O)NC(=O)[C@H]([C@@H](C)O)NC(=O)[C@H](C(C)C)NC(=O)[C@H]([C@@H](C)O)NC(=O)CNC(=O)[C@H](CC(C)C)NC(=O)[C@H](Cc2ccccc2)NC(=O)[C@H](Cc2ccc(O)cc2)NC(=O)[C@H](CC(C)C)NC(=O)[C@H](CCCCN)NC(=O)[C@H](Cc2ccccc2)NC(=O)[C@H](CCCNC(=N)N)NC(=O)[C@H](CCC(N)=O)NC(=O)[C@H](CC(C)C)NC(=O)[C@H](CCCCN)NC(=O)[C@@H]2CCCN2C(=O)[C@H](CCCCN)NC(=O)[C@H](C(C)C)NC(=O)[C@H](CC(N)=O)NC(=O)[C@H](Cc2ccc(O)cc2)NC(=O)[C@H]([C@@H](C)O)NC1=O  MIC (Aeromonas hydrophila; broth dilution; 24 h): 5 to 10 µM
C[N+]1=C2C(c3ccc([N+](=O)[O-])cc3)=[N+]([O-])c3ccccc3N2CCC1  MIC (Fusobacterium nucleatum): 0.25 to 1 µg/mL
C[C@@H]1C(=O)O[C@@H](C)/C=C/C=C\[C@@H](C)[C@@H]2C=C[C@@H]3C[C@@]4(C)O[C@H]4[C@@H](C)[C@H]3[C@@H]2C(=O)C(Cl)(Cl)C1=O  MIC (Staphylococcus aureus; MSSA clinical isolate; no listed resistance): 0.05 µg/mL
CCCCCCCCCCCC(=O)NCCCC[C@H](NC(=O)CCCCCCCCCCC)C(=O)N[C@@H](CCCCNC(=O)CCCCCCCCCCC)C(=O)NCC(=O)NCC(=O)NCC(=O)N[C@@H](CS)C(=O)N[C@@H](CCCNC(=N)N)C(=O)N[C@@H](CCCCN)C(=O)N1CCC[C@H]1C(=O)N[C@@H](CS)C(=O)N[C@@H](CCCNC(=N)N)C(=O)N[C@@H](CCCCN)C(=O)N1CCC[C@H]1C(N)=O  MIC (Candida albicans; broth microdilution; 14936, RPMI-1640; 48 h, 30 °C): > 128 µM
CC(C)(C)C(=O)OCOP(=O)(OCOC(=O)C(C)(C)C)C1CCCN(O)C1=O (stereo not shown)  CC50 (NCI-H460): > 100 µM
CCCCCCCC(=O)NCCCC[C@H](NC(=O)CCCCCCC)C(=O)N[C@@H](CCCCNC(=O)CCCCCCC)C(=O)NCC(=O)NCC(=O)NCC(=O)N[C@@H](CS)C(=O)N[C@@H](CCCNC(=N)N)C(=O)N[C@@H](CCCCN)C(=O)N1CCC[C@H]1C(N)=O  MIC (Candida albicans; broth microdilution; SP 3876, RPMI-1640; 48 h, 30 °C): > 128 µM
CC[C@H](C)[C@H](NC(=O)[C@H](Cc1c[nH]c2ccccc12)NC(=O)[C@H](CCCCN)NC(=O)[C@H](CC(C)C)NC(=O)[C@@H](NC(=O)[C@@H](NC(=O)CNC(=O)[C@H](CCCCN)NC(=O)[C@H](Cc1c[nH]cn1)NC(=O)[C@H](CCCCN)NC(=O)[C@H](Cc1c[nH]c2ccccc12)NC(=O)[C@H](C)NC(=O)[C@H](CC(C)C)NC(=O)[C@H](CO)NC(=O)[C@@H](NC(=O)[C@H](Cc1ccc(O)cc1)NC(=O)[C@H](CCCCN)NC(=O)[C@H](CCC(N)=O)NC(=O)CNC(=O)[C@H](CCCCN)NC(=O)[C@@H](NC(=O)[C@H](C)NC(=O)[C@H](CC(C)C)NC(=O)[C@H](Cc1ccccc1)NC(=O)[C@H](CCC(N)=O)NC(=O)[C@@H](NC(=O)[C@H](CC(C)C)NC(=O)[C@H](CCCCN)NC(=O)[C@H](CCSC)NC(=O)[C@H](Cc1ccccc1)NC(=O)[C@H](C)NC(=O)[C@H](C)NC(=O)[C@@H](N)CCSC)[C@@H](C)CC)[C@@H](C)O)C(C)C)[C@@H](C)O)[C@@H](C)CC)C(=O)N[C@@H](CC(N)=O)C(N)=O  MIC (Salmonella enterica serovar Typhimurium; DA6192; 24 h, 37 °C): 20 µg/mL
CC[C@H](C)[C@H](N)C(=O)N[C@H](C)C(=O)N[C@@H](CC(C)C)C(=O)N[C@H](CCC(=O)O)C(=O)N[C@H](C(=O)N[C@H]1CCCCNC(=O)[C@H](CC(N)=O)NC(=O)[C@@H](CC(=O)O)NC(=O)[C@H](Cc2c[nH]cn2)NC(=O)[C@@H](Cc2ccccc2)NC(=O)[C@H]([C@@H](C)CC)NC(=O)[C@@H](CCCN)NC1=O)[C@@H](C)CC  MIC (Staphylococcus simulans; 22; 18 h, 37 °C, 0.3 mM ZnSO4 LB): > 64 µg/mL
CC(C)CCCCCCCCC/C=C/C(=O)N[C@@H](CC(=O)O)C(=O)N[C@H]1CNC(=O)[C@@H]2CCCN2C(=O)[C@H](C(C)C)NC(=O)[C@@H](CN)NC(=O)CNC(=O)[C@H](CC(=O)O)NC(=O)CNC(=O)[C@H](CC(=O)O)NC(=O)[C@H](CC(=O)O)NC(=O)[C@H]2CCCCN2C1=O  MIC (Staphylococcus aureus; broth microdilution; VISA LIM strain 2, Mueller-Hinton broth, Mg2+ 10 mg/L; 16 h, together with: Ca2+ 2.5 mM): 4 µg/mL
C#CCOc1ccc(CN[C@@]2(C)C[C@H](O[C@H]3[C@H](Oc4c5cc6cc4Oc4ccc(cc4Cl)[C@@H](O)[C@@H](NC(=O)[C@@H](CC(C)C)NC)C(=O)N[C@@H](CC(N)=O)C(=O)N[C@H]6C(=O)N[C@H]4C(=O)N[C@H](C(=O)N[C@H](C(=O)N[C@@H](CCCNC(=N)N)C(N)=O)c6cc(O)cc(O)c6-c6cc4ccc6O)[C@H](O)c4ccc(c(Cl)c4)O5)O[C@H](CO)[C@@H](O)[C@@H]3O)O[C@@H](C)[C@H]2O)cc1OC  MIC (Staphylococcus simulans; broth microdilution; 22, cation-adjusted Mueller-Hinton broth): 0.07 µM
O=C1NC2(CC2)COc2ncc(F)cc2[C@H]2COCCN2c2ccn3ncc1c3n2  organ-to-brain weight ratio (Sprague-Dawley rat, female, ovaries; oral, 20 mg/kg/day, 4 weeks dosing, end of recovery): 5.4 ± 0.14%
C=C(NC(=O)c1csc(-c2nc3c(cc2O)-c2nc(cs2)C(=O)NC(C(C)O)C(=O)NC(=C(C)OC)c2nc(cs2)C(=O)NC2c4nc(cs4)C(=O)NC(COC(=O)c4c5c6c(cccc6n4O)COC(=O)C(OC4CC(C)(O)C(N(C)C)C(C)O4)C2OC5)c2nc-3cs2)n1)C(N)=O (stereo not shown)  MIC (Staphylococcus aureus; MRSA strain 6, vancomycin-induced; 20 generations): 0.0156 µg/mL
CCCCCCCCCC(=O)NCCCC[C@H](NC(=O)CCCCCCCCC)C(=O)N[C@@H](CCCCNC(=O)CCCCCCCCC)C(=O)NCC(=O)NCC(=O)NCC(=O)N[C@@H](CS)C(=O)N[C@@H](CCCNC(=N)N)C(=O)N[C@@H](CCCCN)C(=O)N1CCC[C@H]1C(=O)N[C@@H](CS)C(=O)N[C@@H](CCCNC(=N)N)C(=O)N[C@@H](CCCCN)C(=O)N1CCC[C@H]1C(N)=O  MIC (Candida albicans; broth microdilution; fluconazole-resistant 56214, RPMI-1640; 48 h, 30 °C): 32 µM
C=C1NC(=O)C2CSCC3NC(=O)C(CSC(C)C(NC(=S)C(Cc4cnc[nH]4)NC(=O)c4csc(C(C)NC(C)=O)n4)C(=O)N[C@H](CC(C)C(=O)NC(=O)CC(C(=O)O)NC(=O)C(C)NC3=O)C(=O)N2)NC(=O)[C@@H]2CCCN2C(=O)[C@@H](CC(C)C)NC1=O (stereo partly shown)  MIC (Candida glabrata; EUCAST broth microdilution; clinical isolate, RPMI 1640 MOPS-buffered 2% glucose; 48 h, pH 7.0, 24 °C): > 32 µg/mL
COc1ccccc1-c1n[nH]c2nc(NC3CCN(C(=O)Cc4ccc(F)cc4F)CC3)ncc12  relative abundance (bead binding, competition bead pull-down, refers to: LINJ.30.2930; Leishmania donovani axenic amastigote extract; 10 µM; baseline: vehicle): 0.64
CCCCCC(=O)NCCCC[C@H](NC(=O)CCCCC)C(=O)N[C@@H](CCCCNC(=O)CCCCC)C(=O)NCC(=O)NCC(=O)NCC(=O)N[C@@H](CS)C(=O)N[C@@H](CCCNC(=N)N)C(=O)N[C@@H](CCCCN)C(=O)N1CCC[C@H]1C(=O)N[C@@H](CS)C(=O)N[C@@H](CCCNC(=N)N)C(=O)N[C@@H](CCCCN)C(=O)N1CCC[C@H]1C(N)=O  MIC (Candida albicans; broth microdilution; CGMCC 2.209, RPMI-1640; 48 h, 30 °C): 32 µM

For quick reference, copied from above:
C[C@@H]1C(=O)O[C@@H](C)/C=C/C=C\[C@@H](C)[C@@H]2C=C[C@@H]3C[C@@]4(C)O[C@H]4[C@@H](C)[C@H]3[C@@H]2C(=O)C(Cl)(Cl)C1=O  MIC (Staphylococcus aureus; MSSA clinical isolate; no listed resistance): 0.05 µg/mL
CCCCCCCCCCCC(=O)NCCCC[C@H](NC(=O)CCCCCCCCCCC)C(=O)N[C@@H](CCCCNC(=O)CCCCCCCCCCC)C(=O)NCC(=O)NCC(=O)NCC(=O)N[C@@H](CS)C(=O)N[C@@H](CCCNC(=N)N)C(=O)N[C@@H](CCCCN)C(=O)N1CCC[C@H]1C(=O)N[C@@H](CS)C(=O)N[C@@H](CCCNC(=N)N)C(=O)N[C@@H](CCCCN)C(=O)N1CCC[C@H]1C(N)=O  MIC (Candida albicans; broth microdilution; 14936, RPMI-1640; 48 h, 30 °C): > 128 µM
CC(C)(C)C(=O)OCOP(=O)(OCOC(=O)C(C)(C)C)C1CCCN(O)C1=O (stereo not shown)  CC50 (NCI-H460): > 100 µM
